{"data": "Results from different studies", "read-out": "cell growth or viability", "note": "Compare with care: the assays were run in different laboratories."}
{"Compound": "CN(C)CCNC(=O)c1ccc(-c2nc3ccc4[nH]ncc4c3c3c2CCCCC3)cn1", "cell line": "K562", "method": "resazurin", "time": "72 h", "endpoint": "GI50", "result": "6.4 µM"}
{"Compound": "c1cc(Nc2nccc(NC3CCCCC3)n2)cc(-c2cc[nH]n2)c1", "cell line": "BJ", "method": "ATP luminescence", "time": "72 h", "endpoint": "EC50", "result": "> 15 µM"}
{"Compound": "COc1ccc(NC(=O)c2c(Nc3ccccc3)sc(C#N)c2NC(=O)CNc2ccc([N+](=O)[O-])cc2)cc1", "cell line": "HCT-116", "method": "SRB", "tested at": "10 µM", "time": "48 h", "endpoint": "viability", "result": "56.2%"}
{"Compound": "CC(=NNC(=O)c1cccnc1)c1ccc(Nc2nnc(-c3ccc(Cl)cc3)c3ccccc23)cc1", "cell line": "HepG2", "method": "MTT", "tested at": "2.5 µM", "endpoint": "cell death", "result": "93.1%"}
{"Compound": "CCCC(=O)Nc1ccc(-c2ccc3ncn(CCC)c(=O)c3c2)cn1", "cell line": "NCI-H1975", "method": "CCK-8", "time": "72 h", "endpoint": "IC50", "result": "0.078 µM"}
{"Compound": "Nc1nc2ccc(-c3c/c(=N\\c4ccccc4NC(=O)CCN4CCOCC4)c4ccccc4o3)cc2o1", "cell line": "NCI-H1975", "method": "CCK-8", "tested at": "1 µM", "endpoint": "inhibition", "result": "5%"}
{"Compound": "CCCC(C)C(=O)Nc1ccc(-c2ccc3ncn(CCC)c(=O)c3c2)cn1 (centres unmarked)", "cell line": "HCC827", "method": "CCK-8", "time": "72 h", "endpoint": "IC50", "result": "> 10 µM"}
{"Compound": "CNCCC(=O)Nc1ccccc1/N=c1\\cc(-c2ccc3nc(N)oc3c2)oc2ccccc12", "cell line": "MOLM-13", "method": "CCK-8", "tested at": "1 µM", "endpoint": "inhibition", "result": "26.4%"}
{"Compound": "CN(C)CCN(C)C(=O)c1ccc(-c2nc3ccc4[nH]ncc4c3c3c2CCCCC3)cc1", "cell line": "K562", "method": "resazurin", "time": "72 h", "endpoint": "GI50", "result": "8.8 µM"}
{"Compound": "c1cncc(-c2cccc(Nc3nccc(NC4CC4)n3)c2)c1", "cell line": "BJ", "method": "ATP luminescence", "time": "72 h", "endpoint": "EC50", "result": "> 19 µM"}
{"Compound": "CNC(=O)c1cc(Oc2ccc(NC(=O)Nc3ccc(Cl)c(C(F)(F)F)c3)cc2)ccn1", "cell line": "HCT-116", "method": "SRB", "tested at": "10 µM", "time": "48 h", "endpoint": "viability", "result": "37.1%"}
{"Compound": "c1cncc(-c2cccc(Nc3nccc(NC4CCCCC4)n3)c2)c1", "cell line": "BJ", "method": "ATP luminescence", "time": "72 h", "endpoint": "EC50", "result": "> 9 µM"}
{"Compound": "Cc1n[nH]c2ccc3nc(-c4ccc(C(=O)NCCN(C)C)cc4)c4c(c3c12)CCC(F)(F)C4", "cell line": "K562", "method": "resazurin", "time": "72 h", "endpoint": "GI50", "result": "5.8 µM"}
{"Compound": "NCCC(=O)Nc1ccccc1/N=c1\\cc(-c2ccc3c(c2)OCCO3)oc2cc(F)ccc12", "cell line": "MOLM-13", "method": "CCK-8", "tested at": "1 µM", "endpoint": "inhibition", "result": "10.3%"}
{"Compound": "Cc1n[nH]c2ccc3nc(-c4ccc(C(=O)N(C)CCN(C)C)cc4)c4c(c3c12)CCCCC4", "cell line": "K562", "method": "resazurin", "time": "72 h", "endpoint": "GI50", "result": "9.8 µM"}
{"Compound": "S=C(Nc1ccccc1)Nc1ccc(Oc2nnc(-c3ccc(Cl)cc3)c3ccccc23)cc1", "cell line": "HepG2", "method": "MTT", "tested at": "1.25 µM", "endpoint": "cell death", "result": "42.9%"}
{"Compound": "NCCC(=O)Nc1ccccc1/N=c1\\cc(-c2ccc3nc(N)oc3c2)oc2cc(O)ccc12", "cell line": "NCI-H1975", "method": "CCK-8", "tested at": "1 µM", "endpoint": "inhibition", "result": "6.23%"}
{"Compound": "CC(=NNC(=O)c1ccccc1Cl)c1ccc(Nc2nnc(-c3ccc(Cl)cc3)c3ccccc23)cc1", "cell line": "HepG2", "method": "MTT", "tested at": "2.5 µM", "endpoint": "cell death", "result": "95.2%"}
{"Compound": "CCCn1cnc2ccc(-c3ccc(N4CCCCC4=O)nc3)cc2c1=O", "cell line": "HCC827", "method": "CCK-8", "time": "72 h", "endpoint": "IC50", "result": "> 10 µM"}
{"Compound": "COc1ccc(NC(=O)c2c(Nc3ccccc3)sc(C#N)c2NC(=O)CNc2ccccc2[N+](=O)[O-])cc1", "cell line": "HCT-116", "method": "SRB", "tested at": "1 µM", "time": "48 h", "endpoint": "viability", "result": "81.5%"}
{"Compound": "CCCCCC(=O)Nc1ccc(-c2ccc3ncn(Cc4ccccc4)c(=O)c3c2)cn1", "cell line": "NCI-H1975", "method": "CCK-8", "time": "72 h", "endpoint": "IC50", "result": "> 10 µM"}
{"Compound": "C[C@H](N)C(=O)Nc1ccccc1/N=c1\\cc(-c2ccc3c(c2)OCCO3)oc2c(N)cccc12", "cell line": "NCI-H1975", "method": "CCK-8", "tested at": "1 µM", "endpoint": "inhibition", "result": "-4.76%"}
{"Compound": "CCCn1cnc2ccc(-c3ccc(N4CCCC4=O)nc3)cc2c1=O", "cell line": "HCC827", "method": "CCK-8", "time": "72 h", "endpoint": "IC50", "result": "> 10 µM"}
{"Compound": "O=C(Nc1ccccc1)Nc1ccc(Oc2nnc(-c3ccc(Cl)cc3)c3ccccc23)cc1", "cell line": "HepG2", "method": "MTT", "tested at": "10 µM", "endpoint": "cell death", "result": "95.2%"}
{"Compound": "COc1ccc(NC(=O)c2c(Nc3ccccc3)sc(C#N)c2NC(=O)CNc2ccc(Br)cc2)cc1", "cell line": "HCT-116", "method": "SRB", "tested at": "10 µM", "time": "48 h", "endpoint": "viability", "result": "55.3%"}
{"Compound": "CC(=O)Nc1ccc(Oc2nnc(-c3ccc(Cl)cc3)c3ccccc23)cc1", "cell line": "HepG2", "method": "MTT", "tested at": "0.312 µM", "endpoint": "cell death", "result": "64.8%"}
{"Compound": "CC[C@H](C)Nc1ccnc(Nc2cccc(-c3cccnc3)c2)n1", "cell line": "BJ", "method": "ATP luminescence", "time": "72 h", "endpoint": "EC50", "result": "> 6 µM"}
{"Compound": "CCCCn1cnc2ccc(-c3ccc(NC(C)=O)nc3)cc2c1=O", "cell line": "HCC827", "method": "CCK-8", "time": "72 h", "endpoint": "IC50", "result": "> 10 µM"}
{"Compound": "COc1ccc(NC(=O)c2c(Nc3ccccc3)sc(C(=O)NN=Cc3cc(OC)c(OC)c(OC)c3)c2NC(C)=O)cc1", "cell line": "HCT-116", "method": "SRB", "tested at": "10 µM", "time": "48 h", "endpoint": "viability", "result": "56.3%"}
{"Compound": "CCCCC(=O)Nc1ccc(-c2ccc3ncn(CCC)c(=O)c3c2)cn1", "cell line": "NCI-H1975", "method": "CCK-8", "time": "72 h", "endpoint": "IC50", "result": "0.062 µM"}
{"Compound": "COCCNC(=O)c1ccc(-c2nc3ccc4[nH]ncc4c3c3c2CCCC3)cc1", "cell line": "K562", "method": "resazurin", "time": "72 h", "endpoint": "GI50", "result": "6.3 µM"}
{"Compound": "CC(C)Nc1ccnc(Nc2ccc(C(N)=O)cc2)n1", "cell line": "BJ", "method": "ATP luminescence", "time": "72 h", "endpoint": "EC50", "result": "> 12 µM"}
{"Compound": "COc1ccc2/c(=N/c3ccccc3NC(=O)N3CCOCC3)cc(-c3ccc4c(c3)OCCO4)oc2c1", "cell line": "NCI-H1975", "method": "CCK-8", "tested at": "1 µM", "endpoint": "inhibition", "result": "4.59%"}
{"Compound": "COc1ccc(NC(=O)c2c(Nc3ccccc3)sc(C(=O)NN=Cc3ccc(OC)c(O)c3)c2NC(C)=O)cc1", "cell line": "HCT-116", "method": "SRB", "tested at": "0.1 µM", "time": "48 h", "endpoint": "viability", "result": "61.4%"}
{"Compound": "CC(=NNC(N)=S)c1ccc(Nc2nnc(-c3ccc(Cl)cc3)c3ccccc23)cc1", "cell line": "HepG2", "method": "MTT", "tested at": "5 µM", "endpoint": "cell death", "result": "92.6%"}
{"Compound": "C=C(F)C(=O)N1CCN(c2nc(OC[C@@H]3CCCN3C)nc3c2CCN(c2cccc4cccc(Cl)c24)C3)C[C@@H]1CC#N", "cell line": "ASPC1", "method": "ATP luminescence", "setting": "3D culture", "endpoint": "IC50", "result": "> 1 µM"}
{"Compound": "CCCCCC(=O)Nc1ccc(-c2ccc3ncn(CC4CC4)c(=O)c3c2)cn1", "cell line": "HCC827", "method": "CCK-8", "time": "72 h", "endpoint": "IC50", "result": "0.17 µM"}
{"Compound": "O=C(Nc1ccc(Oc2nnc(-c3ccc(Cl)cc3)c3ccccc23)cc1)c1ccccc1", "cell line": "HepG2", "method": "MTT", "tested at": "1.25 µM", "endpoint": "cell death", "result": "95.1%"}
{"Compound": "CN(c1cccc(-c2cccnc2)c1)c1nccc(N(C)C2CCCCC2)n1", "cell line": "BJ", "method": "ATP luminescence", "time": "72 h", "endpoint": "EC50", "result": "> 5 µM"}
{"Compound": "NCC(=O)Nc1ccccc1/N=c1\\cc(-c2ccc3c(c2)OCO3)oc2c(N)cccc12", "cell line": "MOLM-13", "method": "CCK-8", "tested at": "1 µM", "endpoint": "inhibition", "result": "2.36%"}
{"Compound": "c1ccc(-c2ccccc2Nc2nccc(NC3CCCCC3)n2)cc1", "cell line": "BJ", "method": "ATP luminescence", "time": "72 h", "endpoint": "EC50", "result": "> 7 µM"}
{"Compound": "O=C(C=Cc1ccccc1)Nc1ccc(Oc2nnc(-c3ccc(Cl)cc3)c3ccccc23)cc1", "cell line": "HepG2", "method": "MTT", "tested at": "0.312 µM", "endpoint": "cell death", "result": "0.383%"}
{"Compound": "C[C@H](N)C(=O)Nc1ccccc1/N=c1\\cc(-c2ccc3c(c2)OCCO3)oc2cc(F)ccc12", "cell line": "MOLM-13", "method": "CCK-8", "tested at": "1 µM", "endpoint": "inhibition", "result": "2.17%"}
{"Compound": "COc1ccc(NC(=O)c2c(Nc3ccccc3)sc(C(=O)NN=Cc3ccc(Br)cc3)c2NC(C)=O)cc1", "cell line": "HCT-116", "method": "SRB", "tested at": "1 nM", "time": "48 h", "endpoint": "viability", "result": "99.7%"}
{"Compound": "Cc1nc(Nc2ncc(C(=O)Nc3c(C)cccc3Cl)s2)cc(N2CC[C@H](O)C2)n1", "cell line": "JVM-3", "method": "ATP luminescence", "tested at": "10 µM", "time": "72 h", "endpoint": "inhibition", "result": "61%"}
{"Compound": "CC(C)Nc1ccnc(Nc2cccc(-c3ncco3)c2)n1", "cell line": "BJ", "method": "ATP luminescence", "time": "72 h", "endpoint": "EC50", "result": "> 19 µM"}
{"Compound": "CCC(=CCc1c(O)cc2c(c1O)C(=O)C[C@@H](c1ccc(O)cc1)O2)CC", "cell line": "HeLa", "method": "MTT", "tested at": "1.563 µM", "time": "48 h", "endpoint": "inhibition", "result": "-5.98%"}
{"note": "A few entries again:"}
{"Compound": "CNC(=O)c1cc(Oc2ccc(NC(=O)Nc3ccc(Cl)c(C(F)(F)F)c3)cc2)ccn1", "cell line": "HCT-116", "method": "SRB", "tested at": "10 µM", "time": "48 h", "endpoint": "viability", "result": "37.1%"}
{"Compound": "CCCC(=O)Nc1ccc(-c2ccc3ncn(CCC)c(=O)c3c2)cn1", "cell line": "NCI-H1975", "method": "CCK-8", "time": "72 h", "endpoint": "IC50", "result": "0.078 µM"}
{"Compound": "COCCNC(=O)c1ccc(-c2nc3ccc4[nH]ncc4c3c3c2CCCC3)cc1", "cell line": "K562", "method": "resazurin", "time": "72 h", "endpoint": "GI50", "result": "6.3 µM"}
